Measurements gathered from unrelated publications.
Each numbered part is a random draw from the data of one study; scales do not carry over between parts. Substitutions count along the parent as printed.

Block 1 — technique: RNA Bind-n-Seq; form: RNA; sample: in vitro; tested at: 365 nM; reference: no-protein control; direction: higher = stronger binding
Target: RNA binding protein fox-1 homolog 2, RRM domain, GST-SBP tag (RBFOX2, Homo sapiens, UniProt O43251-10, residues 100-194)
Notes: natural RNA segment, single round, ends assumed
Construct (chain): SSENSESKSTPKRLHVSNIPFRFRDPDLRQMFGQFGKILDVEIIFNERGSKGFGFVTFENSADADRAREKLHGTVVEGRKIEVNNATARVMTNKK
Sequence | RBNS enrichment (R)
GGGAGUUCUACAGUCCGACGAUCUACUUUCCAGCAGUCAGUCCCUGGUUCCUAGAUGUGUUCUAAGCAAUGCAAAUGUCUAAUUGUCCCCCAGUGGGCAUAGUCAGUGUCGUUUAUAUUGUAGCAGUUACAGCUGGAAUUCUCGGGUGCCAA | 0.32
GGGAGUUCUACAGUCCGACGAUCCGGACUCAAACGCCGCUGACUGCCACCCACACGCCCUCCCCAGACUCCACCGUCAGCUGUAACCCUCACCCACAGCCCCUGCUGGGCCCACCACCUGUCCGUCCCUGUCCUGGAAUUCUCGGGUGCCAA | 0.771
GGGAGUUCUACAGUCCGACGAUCGAGACCUAGCCUAGUUUUCCUGCAGACAAUGAAUGAAGUGUGCUCAUUGAAAUAAAAUACAGAGUCAAAUCGCUAUUGUUGUUUUAAUGAUCUGUUUUUAGCUGGAUGGUUGGAAUUCUCGGGUGCCAA | 0.609
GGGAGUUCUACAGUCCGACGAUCUCAAGUUUGGUAUGGCCAGGGAGGGGCAGUCCUGAGGGAGAAGACGGUUCAGGGCAGUGCUCAGCAGCUGUGUGCUCCCCUGGUUGGGUCAUUAACCCUGCAGCUGCCUGUGGAAUUCUCGGGUGCCAA | 0.42
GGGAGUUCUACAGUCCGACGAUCAGAUUUUAAAAGUAACUAAAUAUACUUCAGCACUUUUUUGCUUUAAACUAGAUCAUCUUAGACUUGUUUAUACCUUCCAGAUUUGAUUGUUUUACUCCCAAUGACUGCACUGGAAUUCUCGGGUGCCAA | 0.513
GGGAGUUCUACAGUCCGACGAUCUGUCAACAGCCUUGGUUGAGGUGGGAAUGCAAUUGAUGGGAGCCUGCUGCUGUGUCCUUCUCUACUCUGUUCUGUCCGUGAGGGCUUUCCUUCUGUUGCCCCUCCCCCUCUGGAAUUCUCGGGUGCCAA | 1.32
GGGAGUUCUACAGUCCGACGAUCUCCUGGCCAGCCCCAGCUCAUCACAUUGGGUCCACAGGCAUCCCAGCAUGGGUCCCUGCGCCUCCCUCUCAAGGAGUUGAUUUUUUUUCCCCUCAGUUUCCCCACACCCAUGGAAUUCUCGGGUGCCAA | 0.661
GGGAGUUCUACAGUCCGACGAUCGUUAUGGUCAGAAGGCCUCUUCUCCCUUCCUCCCUCACUCCCUCUCCUCCUAGCUUUCCCCACAGAGAAUGUUAGACCAGUAUGGCUUCUUGCCUUGAUCCUGUUGUGGCUGGAAUUCUCGGGUGCCAA | 0.799
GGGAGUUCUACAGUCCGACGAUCGCAAUCUGGAGAGAGACUCGGUAGGAGUGUGUUGUCUUCUACUCGCAGUGCAUUGAAGGACCCAAGUCCUCAGCCUACUUUCCUACUUUCUGACUGUAGUAAAAGCUGCUUGGAAUUCUCGGGUGCCAA | 0.824
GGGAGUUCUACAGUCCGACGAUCUGAUAGCUUUUCUAAUGUCUGACUAGUAAAUUUUAAAAUGUCAUUCUUUUACAAAUCAUAAUUAGUACUUUUGGUUAUUACCGUCUUCAGUGUUAGCCCAAAGAUUCUGAUGGAAUUCUCGGGUGCCAA | 0.551
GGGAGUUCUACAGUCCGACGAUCCACAGCCUCCAUGUGCGCGCGCGUGUGGAGCUGUGUGCACCGCAUGUGUGCUUUCCACAGGGGCGUCUCUGCGUCCACGCCUGCACAUCCCGGCGCACGUGUGGGCACCAUGGAAUUCUCGGGUGCCAA | 2.54
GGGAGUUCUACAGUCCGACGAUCAGCCAGGGAGCUGGUGACACUUGUGUGCUGUGGGGCAGCUGGGAUCCAGGUAAGACCGGAUUGAAGCUUUGAAAUUAGACUAACAAAGCUCCAGACAGCAAGAGCCCAGGUGGAAUUCUCGGGUGCCAA | 0.369

Block 2 — target: CCNF, cyclin fold, Cln2 fusion (human); technique: yeast growth competition, sequencing; sample: yeast; notes: strong parent motif; reference: not given; direction: higher = stronger binding
Starting sequence: CDT1 docking peptide (human); PPARRRLRLSVDE
Variant | normalised enrichment score
PPARKRLRLSVDE [R5K] | 1.28
PPARRRLRLAVDE [S10A] | 7.51
APARRRLRLSVDE [P1A] | 7.51
PPARRRARLSVDE [L7A] | 2.04
PAARRRLRLSVDE [P2A] | 7.68
PPARRRLRLSVAE [D12A] | 9.27
PPARRALRLSVDE [R6A] | 5.45

Block 3 — technique: DHFR PCA, deep sequencing; sample: yeast; together with: (+)-ABA 0 µM; reference: wild-type fitted maximum; direction: higher = stronger binding
Target: ABI1, truncated, D143A, DHFR fusion (Arabidopsis thaliana)
Notes: methotrexate growth selection, single substitutions
Starting sequence: PYL1, truncated, DHFR fusion (Arabidopsis thaliana); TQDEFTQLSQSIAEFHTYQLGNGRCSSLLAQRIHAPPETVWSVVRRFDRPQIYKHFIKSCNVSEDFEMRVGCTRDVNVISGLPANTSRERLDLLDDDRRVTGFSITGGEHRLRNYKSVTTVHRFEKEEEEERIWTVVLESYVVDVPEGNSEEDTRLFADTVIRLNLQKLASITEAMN
Variant | relative binding score
R98G | 1.9%
E14K | 11.5%
E151Q | 24.3%
M176G | 2.66%
Q51K | 3.88%
I172D | -17.4%
I79D | 2.48%
S11G | 0.923%
T119E | -8.03%
L138E | 8.26%
Q51L | -1.41%
L93R | 1.98%
V121C | -0.589%

Other studies, line by line
Substance | target | test | system | conditions | how to read | endpoint | result
PhoQ, residues 284 288 289 292 302 303 ASSHFY | PhoP, residues 12 14 15 18 19 AYFRS (Escherichia coli, UniProt P23836) | Sort-seq, item: YFP reporter | E. coli | PhoQ-PhoP variant library, together with: 10 µM Mg2+ | reference: high Mg2+ state, higher = stronger signaling | fold induction | 7.08
